Experimental data collected from several papers.
Numbers after ± are the reported error.

SMILES | tested on | test | test system | setting | scale | endpoint | result
COc1ccccc1-c1cc(Nc2cccc(CS(N)(=O)=O)c2)ncn1 | human coronavirus OC43 | virus-induced cell killing | MRC-5 | maximum over 10 doses |  | maximum inhibition | 0.16%
COC(=O)C1CCN(C(=O)c2ccc(NCc3cnc4nc(N)nc(N)c4n3)cc2)CC1 | A549 | CellTiter-Glo |  | 10 µM | 100 none, 0 cytostatic, -100 cytotoxic | cell growth | 157 ± 3.55%
Cc1c2ccncc2c(C)c2c1[nH]c1ccccc12 | A549 |  |  |  | relative to: CL over A549 | selectivity index | 1.82
CC(C)N1CCC(NC2CCN(c3cccc(-c4cc5cc(F)ccc5[nH]4)c3)CC2)CC1 | A549 |  |  |  |  | GI50 | 1.72 µM
O=C1[O][Pt]2([NH][C@@H]3CCCC[C@H]3[NH]2)[O]C1=O | A549 | cytotoxicity, MTT |  | 72 h |  | IC50 | 0.9 ± 0.13 µM
COc1c(CCC[P+](c2ccccc2)(c2ccccc2)c2ccccc2)cc2c(c1OC)OCO2.[I-] | A549 | NCI60 SRB |  |  |  | GI50 | -5.43 log M
O=[N+]([O-])c1nccn1CC(O)CNCCBr (centres unmarked) | A549 | cell viability, SRB |  | 4 h oxic then 120 h oxic |  | IC50 | > 130 µM
Cc1cc(NS(=O)(=O)c2ccc(NC(=O)/C(C#N)=C/c3ccc(N4CCCCC4)cc3)cc2)no1 | A549 | cytotoxicity, MTT |  |  | relative to: HSF over A549 IC50 | selectivity index | > 5.49
CC[C@@H](C)[C@@H](NC(=O)[C@@H](Cc1c[nH]c2ccccc12)NC(=O)[C@@H](CCCNC(=N)N)NC(=O)[C@H](CCC(N)=O)NC(=O)[C@@H]1CCCN1C(=O)[C@H](CCCNC(=N)N)NC(=O)[C@H](CCCNC(=N)N)NC(=O)[C@H](CCCNC(=N)N)NC(=O)[C@H](CCC(N)=O)NC(=O)[C@H](CCCNC(=N)N)NC(=O)[C@H](CCCNC(=N)N)NC(=O)[C@H](CCCCN)NC(=O)[C@H](CCCCN)NC(=O)[C@H](CCCNC(=N)N)NC(=O)CN)C(=O)N[C@H](CCSC)C(=O)N[C@H](Cc1ccc(O)cc1)C(=O)N[C@H](Cc1ccccc1)C(N)=O | A549 | MTT |  |  |  | sublethal dose | 2 µM
Cc1cc2c(C(=O)NC[C@H](C)c3ccccc3)c(O)c(O)cc2c(O)c1-c1c(C)cc2c(C(=O)NC[C@H](C)c3ccccc3)c(O)c(O)cc2c1O | human coronavirus OC43 | virus-induced cell killing | MRC-5 | maximum over 10 doses |  | maximum inhibition | 0.448%
CN1CCN(C2(CNC3CCN(c4cccc(-c5cc6cc(F)ccc6[nH]5)c4)CC3)CCC2)CC1 | A549 |  |  |  |  | TGI | 3.51 µM
CC(C)C[C@H](NC(=O)[C@H](Cc1c[nH]c2ccccc12)NC(=O)[C@@H](NC(=O)[C@H](CC(C)C)NC(=O)[C@H](Cc1ccccc1)NC(=O)[C@@H](NC(=O)[C@H](CCCCN)NC(=O)[C@H](CCCNC(=N)N)NC(=O)[C@H](CCCCN)NC(=O)[C@H](CCCCN)NC(=O)[C@H](CCCCN)NC(=O)[C@@H]1CCCN1C(=S)Nc1ccc2c(c1)C(=O)OC21c2ccc(O)cc2Oc2cc(O)ccc21)C(C)C)[C@@H](C)O)C(=O)O | A549 | CCK-8 |  | liposome-delivered |  | IC50 | 45 µM
CC1=CC(=O)c2c(O)cccc2C1=O | A549 | MTT |  |  | relative to: IC50 MRC-5 over IC50 A549 | selectivity index | 0.37
COc1cc(CCC[P+](c2ccccc2)(c2ccccc2)c2ccccc2)c(OC)c2c1OCO2.[I-] | A549 | NCI60 SRB |  |  |  | LC50 | > -4 log M

Repeated from above:
SMILES | tested on | test | test system | setting | scale | endpoint | result
COc1ccccc1-c1cc(Nc2cccc(CS(N)(=O)=O)c2)ncn1 | human coronavirus OC43 | virus-induced cell killing | MRC-5 | maximum over 10 doses |  | maximum inhibition | 0.16%
COC(=O)C1CCN(C(=O)c2ccc(NCc3cnc4nc(N)nc(N)c4n3)cc2)CC1 | A549 | CellTiter-Glo |  | 10 µM | 100 none, 0 cytostatic, -100 cytotoxic | cell growth | 157 ± 3.55%
